Published values gathered from unrelated publications.
A part holds a random share of what one study measured.

Series 1
Target: Interferon regulatory factor 5, full length, phosphomimetic (IRF5, Homo sapiens, UniProt Q13568-2, residues 1-514, K96S/S451D/S453D/S456D/S462D)
Technique: protein-binding microarray
Form: double-stranded DNA, one strand shown
Matrix: in vitro
Tested at: 250 nM
Setting: 60-bp whole probe
With: salmon DNA 0.4 mg/ml
Reference: random background probes
Direction: higher = stronger binding
All sequences stand within: GCCTAGCAC … GTCTTGATTCGCTTGACGCTGCTG
Sequence	log fluorescence
CACTTTCTTTACTTCACTCTGTGCTAG	3.35 z-score
TCATATTTTAATCACATACTGTGCTAG	1.07 z-score
GTCGGACTGGACTATCGGGACGTGCTA	0.692 z-score
TTGGGTCTCGGACTGGGTTAGTGCTAG	-0.322 z-score
CCAGAGTCCTGTTTGATAATGTGCTAG	-0.3 z-score

Series 2
Target: Sal-like protein 4, full length isoform A (SALL4, Homo sapiens, UniProt Q9UJQ4, residues 1-1053)
UniProt Q9UJQ4, sequence (whole entry, looked up): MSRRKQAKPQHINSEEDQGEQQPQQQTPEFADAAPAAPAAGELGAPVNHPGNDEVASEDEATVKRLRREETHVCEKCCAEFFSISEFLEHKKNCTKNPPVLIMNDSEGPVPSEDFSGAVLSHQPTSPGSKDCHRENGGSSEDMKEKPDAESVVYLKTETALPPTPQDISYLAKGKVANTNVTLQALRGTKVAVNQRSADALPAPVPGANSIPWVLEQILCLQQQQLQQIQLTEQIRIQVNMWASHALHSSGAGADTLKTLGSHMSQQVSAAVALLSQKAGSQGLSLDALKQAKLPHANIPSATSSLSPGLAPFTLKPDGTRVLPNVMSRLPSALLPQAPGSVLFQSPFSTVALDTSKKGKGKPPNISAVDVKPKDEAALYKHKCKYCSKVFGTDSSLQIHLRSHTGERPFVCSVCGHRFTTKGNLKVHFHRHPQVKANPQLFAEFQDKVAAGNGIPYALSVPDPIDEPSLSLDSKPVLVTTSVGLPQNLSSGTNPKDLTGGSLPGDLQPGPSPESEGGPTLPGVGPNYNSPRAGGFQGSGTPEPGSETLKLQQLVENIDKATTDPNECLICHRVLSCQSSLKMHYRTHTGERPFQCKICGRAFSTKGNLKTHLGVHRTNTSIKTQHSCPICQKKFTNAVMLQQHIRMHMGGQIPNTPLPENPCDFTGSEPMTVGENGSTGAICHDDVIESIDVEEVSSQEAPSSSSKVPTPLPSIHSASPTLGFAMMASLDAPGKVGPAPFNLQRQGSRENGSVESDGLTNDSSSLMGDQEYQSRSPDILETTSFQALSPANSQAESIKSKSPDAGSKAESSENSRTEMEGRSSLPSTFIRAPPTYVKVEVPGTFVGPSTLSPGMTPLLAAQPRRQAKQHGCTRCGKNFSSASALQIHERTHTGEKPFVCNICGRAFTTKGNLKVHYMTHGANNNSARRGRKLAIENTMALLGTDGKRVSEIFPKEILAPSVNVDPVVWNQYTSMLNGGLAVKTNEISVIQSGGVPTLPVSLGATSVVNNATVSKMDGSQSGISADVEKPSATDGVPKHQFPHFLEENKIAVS
Technique: universal PBM
Form: double-stranded DNA, one strand shown
Matrix: in vitro
Tested at: 600 nM
Setting: 8-mer, flanks averaged, mean of replicates
Direction: higher = stronger binding
Sequence	E-score
AAGTTTAT	0.347
CAGTGATC	-0.0947
AATGGCCA	-0.149

Series 3
Target: Histone acetyltransferase KAT6A, both winged helices, GST fusion (KAT6A, Homo sapiens, UniProt Q92794, residues 1-181)
Technique: protein binding microarray
Form: double-stranded DNA, one strand shown
Matrix: in vitro
Tested at: not given
Setting: 8-mer, flanks averaged, mean of 2 arrays, mostly near background
Reference: not given
Direction: higher = stronger binding
Construct (chain): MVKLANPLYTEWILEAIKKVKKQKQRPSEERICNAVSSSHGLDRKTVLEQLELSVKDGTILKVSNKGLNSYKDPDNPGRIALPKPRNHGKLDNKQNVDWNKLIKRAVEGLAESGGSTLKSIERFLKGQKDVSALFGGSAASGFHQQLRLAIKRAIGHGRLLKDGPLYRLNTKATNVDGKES
Sequence	E-score
ACTTTTAT	-0.146
ATGAATTA	-0.061
GTGTATAA	-0.0461

Further values, each from its own experiment
Substance	target	test	system	setting	how to read	measurement	result
PhoQ, residues 284 288 289 292 302 303 SVHLDV	PhoP, residues 12 14 15 18 19 QQAYL (Escherichia coli, UniProt P23836)	Sort-seq, refers to: YFP reporter	E. coli	PhoQ-PhoP variant library, with: 10 µM Mg2+	reference: high Mg2+ state, higher = stronger signaling	fold induction	20.5

For quick reference, copied from above (series 2):
Sequence	E-score
AATGGCCA	-0.149
CAGTGATC	-0.0947
